Results of several laboratories.
Parts stem from different laboratories: compare values within a part only. Substitutions count along the parent as printed.

Series 1
Target: CCNB3, cyclin fold, Cln2 fusion (human)
Method: yeast growth competition, sequencing
Medium: yeast
Notes: strong parent motif
Baseline: not given
Reading: higher = stronger binding
Parent: E2F1 docking peptide (human); PPVKRRLDFETDH
Under “normalised enrichment score”, `PPVKQRLDFETDH [R5Q]` is recorded as -0.00208.
`PPVKRRLDFETVH [D12V]` — result for “normalised enrichment score”: 3.2.
For `PPVKRRLDAETDH [F9A]`, “normalised enrichment score” read 0.0733.
`PFVKRRLDFETDH [P2F]` — result for “normalised enrichment score”: 1.57.
`PPVKRRLDTETDH [F9T]` — result for “normalised enrichment score”: -0.0966.
For `PPVKRRDDFETDH [L7D]`, “normalised enrichment score” read -0.0825.
`PPVKRRLDVETDH [F9V]`: “normalised enrichment score” 0.14.
`PPVKRRLNFETDH [D8N]`: “normalised enrichment score” 3.44.
For `PPVKRRLKFETDH [D8K]`, “normalised enrichment score” read 2.29.
For `PPVKRRLDFETQH [D12Q]`, “normalised enrichment score” read 2.87.
Under “normalised enrichment score”, `PPVCRRLDFETDH [K4C]` is recorded as 2.77.

Series 2
Target: PABPC1L2, full length, GST fusion (mouse, UniProt A0ABA7IW68)
Method: RNAcompete
Form: RNA
Medium: in vitro
Tested at: 20 nM
Notes: 7-mer, probes averaged, single round
Baseline: mean of 7-mers
Reading: higher = stronger binding
Target sequence (chain): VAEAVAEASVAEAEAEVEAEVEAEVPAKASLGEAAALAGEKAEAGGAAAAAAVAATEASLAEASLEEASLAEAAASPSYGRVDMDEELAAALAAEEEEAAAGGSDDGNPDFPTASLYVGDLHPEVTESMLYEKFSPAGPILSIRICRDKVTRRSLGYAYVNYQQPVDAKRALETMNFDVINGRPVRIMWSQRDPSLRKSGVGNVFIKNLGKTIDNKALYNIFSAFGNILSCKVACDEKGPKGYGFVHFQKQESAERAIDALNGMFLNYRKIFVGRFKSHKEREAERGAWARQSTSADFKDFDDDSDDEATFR
`AGGAGCU` gave a 7-mer Z-score of -0.0047.
`CUUGGCC` gave a 7-mer Z-score of -0.295.
`GGUCCAU` gave a 7-mer Z-score of -0.2.
With `CGACGUC` the 7-mer Z-score was -0.168.
`GUAAGGU` gave a 7-mer Z-score of -0.05.
`CUCCGAA` gave a 7-mer Z-score of -0.208.
`AGGACGG` has a 7-mer Z-score of 0.381.
With `AGUCCUG` the 7-mer Z-score was -0.315.
With `GUGUUCC` the 7-mer Z-score was -0.327.
With `GAACGAU` the 7-mer Z-score was -0.0736.
For `AAAGGAG`, the 7-mer Z-score was 0.936.

Series 3
Target: RNA binding protein fox-1 homolog 2, RRM domain, GST-SBP tag (RBFOX2, Homo sapiens, UniProt O43251-10, residues 100-194)
Method: RNA Bind-n-Seq
Form: RNA
Medium: in vitro
Tested at: 365 nM
Notes: natural RNA segment, single round, ends assumed
Baseline: no-protein control
Reading: higher = stronger binding
Target sequence (chain): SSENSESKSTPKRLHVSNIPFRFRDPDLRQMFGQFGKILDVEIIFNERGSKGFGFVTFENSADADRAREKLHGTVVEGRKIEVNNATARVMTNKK
`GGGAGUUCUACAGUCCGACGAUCUGAGGCAGGUGGCUGGGGGUGACACCAGGUGACAAGGGGACUCAGUGGCAGGGGGUCACACCAGGCAGAACACCAUACACUCUCCAUCAGCUGUCUGUCUGGAUGUCACUUGGAAUUCUCGGGUGCCAA`: “RBNS enrichment (R)” 0.83.
For `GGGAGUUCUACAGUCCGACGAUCUGACUCCUGUCCCCAAGGGAGGCAUUGUGGUCCUGUCCCCUUGGUAGAGCUCCUGAGGUACUGUUCCAGUGAGGGGCAUUAUGAGAGGAGCGGGGCAGCCCAGGAGGUCUUGGAAUUCUCGGGUGCCAA`, “RBNS enrichment (R)” read 0.685.
Under “RBNS enrichment (R)”, `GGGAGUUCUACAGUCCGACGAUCUAUAAAACUACAACCUGAUCUACCCUCCAGGGCCUCCUCAGUUCCACUGAUUGAAAUUUUCUUCUUCCAUGGACUAAGUCCAUCUAGGAAGGAAAAAUGAGGAGAAAGAGUGGAAUUCUCGGGUGCCAA` is recorded as 0.258.
For `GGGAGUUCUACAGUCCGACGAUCGGUUCUGGUACUUUGAAGUCAAUGCUGUCAGGCCAGGGAAAUAAAAUAAUUGCUUACCUUAAAAGUCUACCUGGACUCAGAAUUGUGGCCUCUUUCUUUUUCUUUUCCUUUGGAAUUCUCGGGUGCCAA`, “RBNS enrichment (R)” read 0.401.
Under “RBNS enrichment (R)”, `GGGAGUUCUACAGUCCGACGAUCAACAGGGGUUAAGUAUUAAAUACACGAAGUUACAUUUUUGUUCAUGUUUCAUUGUCCAGAAAGCAGCAGGAAACUAUUCAGUUGUGAUCAAGCAGGAAAAAAGAAACACCUGGAAUUCUCGGGUGCCAA` is recorded as 0.264.
For `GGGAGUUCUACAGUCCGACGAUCUCAAAGGACUGUUACUUUAUUAUUGUAUUCAACACUCAUUGUGUGUAUUACCACAAAUACUACCGACUCCAUACCAACACUUUUUUUUUUCUGGCAACAUUUAAUGAUCCUGGAAUUCUCGGGUGCCAA`, “RBNS enrichment (R)” read 0.576.
Under “RBNS enrichment (R)”, `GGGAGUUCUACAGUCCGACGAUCCUGUUCGUCUGCACAGCUGUGAGGCGAUGCUGUUCCAUCUGCACAUGAAGGACCCCCAUACAGCCUGUCUCCCACCCCUGACAACCCGAGAGGGCAUAUGGGGCCCUGCCUGGAAUUCUCGGGUGCCAA` is recorded as 1.14.
Under “RBNS enrichment (R)”, `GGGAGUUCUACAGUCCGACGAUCGCCCUGUGAGAGGAAGAUGGGGCCACCCCAGGGCUCCCAAUGCACUCGGAAGUCAGCAGUACCAGGAGCUCAGGCUGAGAAGGACAGCAGUGCGGCUUCAGGACGAAGCUUGGAAUUCUCGGGUGCCAA` is recorded as 0.525.

Mixed results
The fold induction of `PhoQ, residues 284 288 289 292 302 303 ASASEQ` is reported as 4.24 (PhoP, residues 12 14 15 18 19 TQCLL (Escherichia coli, UniProt P23836); Sort-seq, measured: YFP reporter; E. coli; PhoQ-PhoP variant library, added: 10 µM Mg2+; baseline: high Mg2+ state, higher = stronger signaling).

Excerpt of the above (series 3):
Under “RBNS enrichment (R)”, `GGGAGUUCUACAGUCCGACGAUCAACAGGGGUUAAGUAUUAAAUACACGAAGUUACAUUUUUGUUCAUGUUUCAUUGUCCAGAAAGCAGCAGGAAACUAUUCAGUUGUGAUCAAGCAGGAAAAAAGAAACACCUGGAAUUCUCGGGUGCCAA` is recorded as 0.264.
For `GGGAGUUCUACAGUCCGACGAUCUCAAAGGACUGUUACUUUAUUAUUGUAUUCAACACUCAUUGUGUGUAUUACCACAAAUACUACCGACUCCAUACCAACACUUUUUUUUUUCUGGCAACAUUUAAUGAUCCUGGAAUUCUCGGGUGCCAA`, “RBNS enrichment (R)” read 0.576.
Under “RBNS enrichment (R)”, `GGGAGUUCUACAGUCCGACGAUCCUGUUCGUCUGCACAGCUGUGAGGCGAUGCUGUUCCAUCUGCACAUGAAGGACCCCCAUACAGCCUGUCUCCCACCCCUGACAACCCGAGAGGGCAUAUGGGGCCCUGCCUGGAAUUCUCGGGUGCCAA` is recorded as 1.14.
Under “RBNS enrichment (R)”, `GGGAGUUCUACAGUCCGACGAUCGCCCUGUGAGAGGAAGAUGGGGCCACCCCAGGGCUCCCAAUGCACUCGGAAGUCAGCAGUACCAGGAGCUCAGGCUGAGAAGGACAGCAGUGCGGCUUCAGGACGAAGCUUGGAAUUCUCGGGUGCCAA` is recorded as 0.525.
